Measurements collected from several papers.
Parts stem from different laboratories: compare values within a part only.
Sequence of UniProt Q12866 (whole entry, looked up): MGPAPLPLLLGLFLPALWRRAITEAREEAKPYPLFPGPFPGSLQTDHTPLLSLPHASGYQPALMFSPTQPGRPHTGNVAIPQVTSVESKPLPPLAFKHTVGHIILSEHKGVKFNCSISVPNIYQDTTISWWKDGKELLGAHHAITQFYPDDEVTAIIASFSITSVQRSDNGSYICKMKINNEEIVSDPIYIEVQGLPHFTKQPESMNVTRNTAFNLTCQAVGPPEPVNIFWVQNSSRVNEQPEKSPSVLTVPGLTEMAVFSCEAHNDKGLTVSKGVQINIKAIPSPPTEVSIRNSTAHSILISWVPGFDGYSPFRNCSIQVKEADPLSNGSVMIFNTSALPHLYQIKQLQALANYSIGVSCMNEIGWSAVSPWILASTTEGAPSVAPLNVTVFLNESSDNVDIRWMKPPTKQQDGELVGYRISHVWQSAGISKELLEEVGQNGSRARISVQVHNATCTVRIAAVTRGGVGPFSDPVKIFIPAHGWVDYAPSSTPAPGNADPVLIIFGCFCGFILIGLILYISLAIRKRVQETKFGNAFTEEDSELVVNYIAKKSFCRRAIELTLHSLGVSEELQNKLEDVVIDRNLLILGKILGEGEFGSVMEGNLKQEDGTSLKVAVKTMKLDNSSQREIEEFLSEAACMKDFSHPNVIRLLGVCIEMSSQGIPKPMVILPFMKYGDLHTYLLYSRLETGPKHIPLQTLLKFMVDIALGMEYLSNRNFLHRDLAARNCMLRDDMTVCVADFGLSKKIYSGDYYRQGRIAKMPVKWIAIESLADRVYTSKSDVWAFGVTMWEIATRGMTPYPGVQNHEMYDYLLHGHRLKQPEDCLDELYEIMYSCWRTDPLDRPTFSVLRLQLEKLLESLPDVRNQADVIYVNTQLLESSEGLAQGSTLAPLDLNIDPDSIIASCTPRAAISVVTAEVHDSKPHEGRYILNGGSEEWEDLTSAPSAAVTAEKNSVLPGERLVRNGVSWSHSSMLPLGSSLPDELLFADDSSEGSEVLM
Sequence of UniProt P78368 (whole entry, looked up): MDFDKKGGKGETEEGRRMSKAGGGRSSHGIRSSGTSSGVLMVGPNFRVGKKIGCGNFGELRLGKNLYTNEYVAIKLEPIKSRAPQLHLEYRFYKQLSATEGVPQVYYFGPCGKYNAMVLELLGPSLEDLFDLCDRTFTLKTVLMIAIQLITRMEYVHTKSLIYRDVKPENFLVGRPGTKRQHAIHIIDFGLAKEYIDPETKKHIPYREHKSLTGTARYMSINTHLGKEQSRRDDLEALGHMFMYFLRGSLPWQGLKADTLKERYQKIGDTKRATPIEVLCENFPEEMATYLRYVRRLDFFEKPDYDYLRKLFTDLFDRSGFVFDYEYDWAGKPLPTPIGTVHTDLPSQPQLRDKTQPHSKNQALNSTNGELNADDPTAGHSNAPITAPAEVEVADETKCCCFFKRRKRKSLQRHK
Sequence of UniProt Q9UL54 (whole entry, looked up): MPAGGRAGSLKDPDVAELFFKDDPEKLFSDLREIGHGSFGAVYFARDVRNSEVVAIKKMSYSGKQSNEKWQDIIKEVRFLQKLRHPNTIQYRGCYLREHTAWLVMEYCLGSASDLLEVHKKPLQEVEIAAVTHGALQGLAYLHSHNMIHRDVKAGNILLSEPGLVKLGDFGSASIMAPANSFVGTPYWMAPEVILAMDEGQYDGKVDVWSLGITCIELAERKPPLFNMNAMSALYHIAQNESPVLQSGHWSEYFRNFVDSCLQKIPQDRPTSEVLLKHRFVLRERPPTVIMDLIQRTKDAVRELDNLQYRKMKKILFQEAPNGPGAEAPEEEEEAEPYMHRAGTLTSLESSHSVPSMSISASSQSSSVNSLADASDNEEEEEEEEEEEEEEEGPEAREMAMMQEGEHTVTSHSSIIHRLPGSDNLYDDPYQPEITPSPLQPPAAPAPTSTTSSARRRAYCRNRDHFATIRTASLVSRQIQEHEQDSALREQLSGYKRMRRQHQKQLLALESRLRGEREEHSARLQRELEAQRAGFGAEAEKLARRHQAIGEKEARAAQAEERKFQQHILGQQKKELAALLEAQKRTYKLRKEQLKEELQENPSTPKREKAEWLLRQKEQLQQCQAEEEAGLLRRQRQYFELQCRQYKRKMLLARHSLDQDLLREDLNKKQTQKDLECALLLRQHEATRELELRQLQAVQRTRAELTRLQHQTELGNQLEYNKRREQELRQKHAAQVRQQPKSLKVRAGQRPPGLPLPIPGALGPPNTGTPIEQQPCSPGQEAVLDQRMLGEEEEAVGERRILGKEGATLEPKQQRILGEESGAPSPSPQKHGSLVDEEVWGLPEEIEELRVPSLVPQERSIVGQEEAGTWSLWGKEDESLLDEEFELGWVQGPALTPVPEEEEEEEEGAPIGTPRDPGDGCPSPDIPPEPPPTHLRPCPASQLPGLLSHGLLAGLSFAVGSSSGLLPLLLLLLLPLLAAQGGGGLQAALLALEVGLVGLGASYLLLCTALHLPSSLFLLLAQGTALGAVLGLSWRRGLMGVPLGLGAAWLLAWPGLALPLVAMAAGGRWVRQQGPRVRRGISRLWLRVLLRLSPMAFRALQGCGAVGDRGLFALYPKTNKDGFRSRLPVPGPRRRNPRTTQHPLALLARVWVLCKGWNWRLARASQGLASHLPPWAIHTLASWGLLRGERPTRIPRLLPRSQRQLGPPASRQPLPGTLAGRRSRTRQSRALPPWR
Sequence of UniProt Q8WTQ7 (whole entry, looked up): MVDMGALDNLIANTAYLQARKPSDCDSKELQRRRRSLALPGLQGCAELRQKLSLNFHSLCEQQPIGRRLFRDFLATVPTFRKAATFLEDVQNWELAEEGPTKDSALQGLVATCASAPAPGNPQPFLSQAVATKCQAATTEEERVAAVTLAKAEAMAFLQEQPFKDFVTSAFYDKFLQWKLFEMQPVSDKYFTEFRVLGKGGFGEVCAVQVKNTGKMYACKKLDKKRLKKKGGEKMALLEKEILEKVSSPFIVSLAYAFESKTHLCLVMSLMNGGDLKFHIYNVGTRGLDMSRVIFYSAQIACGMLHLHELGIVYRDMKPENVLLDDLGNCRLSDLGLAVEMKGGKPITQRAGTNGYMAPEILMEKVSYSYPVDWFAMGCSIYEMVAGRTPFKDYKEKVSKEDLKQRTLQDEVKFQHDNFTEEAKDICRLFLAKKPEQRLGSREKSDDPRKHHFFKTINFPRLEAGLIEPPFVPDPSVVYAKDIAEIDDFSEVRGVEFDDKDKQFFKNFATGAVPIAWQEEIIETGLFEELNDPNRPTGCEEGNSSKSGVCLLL
Sequence of UniProt O00329 (whole entry, looked up): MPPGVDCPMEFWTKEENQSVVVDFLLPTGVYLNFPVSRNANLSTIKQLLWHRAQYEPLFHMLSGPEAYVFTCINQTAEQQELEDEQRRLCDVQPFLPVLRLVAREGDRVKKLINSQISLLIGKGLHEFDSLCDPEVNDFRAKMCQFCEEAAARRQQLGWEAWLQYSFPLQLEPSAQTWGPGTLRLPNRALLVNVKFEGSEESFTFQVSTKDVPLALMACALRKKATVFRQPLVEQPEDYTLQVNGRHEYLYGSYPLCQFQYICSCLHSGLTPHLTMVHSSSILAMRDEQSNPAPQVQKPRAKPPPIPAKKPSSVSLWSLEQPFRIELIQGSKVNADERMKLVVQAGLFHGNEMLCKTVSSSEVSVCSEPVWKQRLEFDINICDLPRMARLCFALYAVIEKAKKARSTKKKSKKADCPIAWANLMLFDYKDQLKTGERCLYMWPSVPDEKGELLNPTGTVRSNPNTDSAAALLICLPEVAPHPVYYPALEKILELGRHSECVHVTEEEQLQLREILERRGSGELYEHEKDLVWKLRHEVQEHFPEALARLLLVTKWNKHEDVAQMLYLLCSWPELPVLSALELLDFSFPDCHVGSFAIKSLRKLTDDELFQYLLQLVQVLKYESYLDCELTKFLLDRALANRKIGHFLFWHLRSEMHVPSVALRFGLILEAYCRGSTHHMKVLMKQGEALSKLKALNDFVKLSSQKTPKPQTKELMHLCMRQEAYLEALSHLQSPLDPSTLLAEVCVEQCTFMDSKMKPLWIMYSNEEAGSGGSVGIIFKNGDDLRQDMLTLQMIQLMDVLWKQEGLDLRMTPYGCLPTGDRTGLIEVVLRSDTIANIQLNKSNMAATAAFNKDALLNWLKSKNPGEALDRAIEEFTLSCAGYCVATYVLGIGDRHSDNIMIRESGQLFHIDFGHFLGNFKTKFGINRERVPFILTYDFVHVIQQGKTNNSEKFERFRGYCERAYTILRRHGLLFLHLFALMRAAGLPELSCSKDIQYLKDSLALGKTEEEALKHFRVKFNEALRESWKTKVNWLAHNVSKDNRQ
Sequence of UniProt P49841 (whole entry, looked up): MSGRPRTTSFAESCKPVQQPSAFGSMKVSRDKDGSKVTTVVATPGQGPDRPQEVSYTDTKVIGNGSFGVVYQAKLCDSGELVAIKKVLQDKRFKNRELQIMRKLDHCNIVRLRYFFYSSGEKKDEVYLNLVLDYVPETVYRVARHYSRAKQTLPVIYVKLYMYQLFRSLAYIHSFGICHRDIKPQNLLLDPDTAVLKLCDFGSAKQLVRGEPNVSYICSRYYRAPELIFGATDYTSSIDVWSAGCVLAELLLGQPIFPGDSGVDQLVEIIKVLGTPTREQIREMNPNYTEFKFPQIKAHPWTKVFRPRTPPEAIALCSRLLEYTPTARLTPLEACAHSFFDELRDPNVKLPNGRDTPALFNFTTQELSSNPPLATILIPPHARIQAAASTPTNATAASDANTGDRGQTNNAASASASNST
Sequence of UniProt O75716 (whole entry, looked up): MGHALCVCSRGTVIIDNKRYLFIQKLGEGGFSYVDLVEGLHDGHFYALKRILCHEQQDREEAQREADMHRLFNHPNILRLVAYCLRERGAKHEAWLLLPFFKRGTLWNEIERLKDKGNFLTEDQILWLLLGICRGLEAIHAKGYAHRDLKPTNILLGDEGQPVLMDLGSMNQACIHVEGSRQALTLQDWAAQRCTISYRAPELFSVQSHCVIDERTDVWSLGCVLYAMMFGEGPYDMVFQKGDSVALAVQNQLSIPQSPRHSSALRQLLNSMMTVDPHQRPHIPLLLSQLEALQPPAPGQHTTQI

Sample 1
Target: UBE2J2 UBC core domain (UniProt Q8N2K1)
Method: yeast two-hybrid
Medium: yeast
Notes: mostly zero background
Reference: not given
Reading: higher = stronger interaction
B1: MID1 RING domain (UniProt O15344); chain METLESELTCPICLELFEDPLLLPCAHSLCFNCAHRILVSHCATNESVESITAFQCPTCRHVITLSQRGL
B2: RNF25 RING domain (UniProt Q96BH1); chain LTDNNIPHGQCVICLYGFQEKEAFTKTPCYHYFHCHCLARYIQHMEQELKAQGQEQEQERQHATTKQKAVGVQCPVCREPLVYDLASL
B3: ARK2C RING domain (UniProt Q6ZSG1); chain EGEESDTDEKCTICLSMLEDGEDVRRLPCMHLFHQLCVDQWLAMSKKCPICRVDIETQLGAD
Target sequence (chain): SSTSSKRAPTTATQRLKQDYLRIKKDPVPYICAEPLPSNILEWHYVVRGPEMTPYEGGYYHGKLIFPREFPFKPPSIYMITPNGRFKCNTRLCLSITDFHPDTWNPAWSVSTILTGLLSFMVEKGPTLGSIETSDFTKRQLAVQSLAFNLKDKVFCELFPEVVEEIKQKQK
Molecule	lacZ reporter activity
VTLSLTLPITCHICLGKVRQPVICINNHVFCSICIDLWLKNNSQCPACRVPITPENPCK (OBI1 RING domain (UniProt Q5W0B1))	0
FASPPDSNFVCSVCHGVLKRPARLPCSHIFCKKCILRWLARQKTCPCCRKEVKRKKVVH (RNF151 RING domain (UniProt Q2KHN1))	0
B1 (MID1 RING domain)	4720
QLQDIKEQTMCPVCLDRLKNMIFLCGHGTCQLCGDRMSECPICRKAIERRILLY (MIB1 RING domain (UniProt Q86YT6))	0
B2 (RNF25 RING domain)	0
DAIPSLSECQCGICMEILVEPVTLPCNHTLCKPCFQSTVEKASLCCPFCRRRVSSWTRYH (RNF168 RING domain (UniProt Q8IYW5))	0
KTLSRFGIQPCSICLGDAKDPVCLPCDHVHCLRCLRAWFASEQMICPYCLTALPDEFSPA (RNF213 RING domain (UniProt Q63HN8))	0
B3 (ARK2C RING domain)	0

Sample 2
Structure (SMILES): CCC(=O)N[C@H]1CC[C@@H](C(=O)N(C)c2ccc(-c3nc4ccccc4o3)cc2)C1
Effect on: cell-free assay
Method: competition with immobilised ligand
Concentration: 1 µM
target	remaining binding [%]
DCLK3 (Homo sapiens, UniProt Q9C098)	87
PRKD2 (Homo sapiens, UniProt Q9BZL6)	100
PIK3CD (Homo sapiens, UniProt O00329)	100
NLK (Homo sapiens, UniProt Q9UBE8)	87
TSSK3 (Homo sapiens, UniProt Q96PN8)	100
MYLK (Homo sapiens, UniProt Q15746)	69
CDK14 (Homo sapiens, UniProt O94921)	92
MAP2K6 (Homo sapiens, UniProt P52564)	100
CDK11B (Homo sapiens, UniProt P21127)	99
STK16 (Homo sapiens, UniProt O75716)	100
MST1R (Homo sapiens, UniProt Q04912)	87
CAMK2D (Homo sapiens, UniProt Q13557)	91
BRAF (Homo sapiens, UniProt P15056, V600E)	96

Sample 3
SMILES: CC#CC(=O)Nc1cc2c(Nc3ccc(F)c(Cl)c3)ncnc2cn1
Effect on: enzyme activity
Action: inhibitor
Concentration: 0.5 µM
Reference: control
target	remaining activity
TAOK2 (Homo sapiens, UniProt Q9UL54)	106%
GSK3B (Homo sapiens, UniProt P49841)	93%
LCK (Homo sapiens, UniProt P06239)	92.2%
ULK2 (Homo sapiens, UniProt Q8IYT8)	96.7%
CSNK1G3 (Homo sapiens, UniProt Q9Y6M4)	111%
WEE1 (Homo sapiens, UniProt P30291)	93.2%
FGFR1 (Homo sapiens, UniProt P11362)	91.1%
CSNK1G2 (Homo sapiens, UniProt P78368)	94.9%
JAK3 (Homo sapiens, UniProt P52333)	-0.181%
MERTK (Homo sapiens, UniProt Q12866)	84.5%
TBK1 (Homo sapiens, UniProt Q9UHD2)	105%
TEK (Homo sapiens, UniProt Q02763)	99.7%
GRK7 (Homo sapiens, UniProt Q8WTQ7)	106%
MAPKAPK2 (Homo sapiens, UniProt P49137)	104%

Sample 4
Target: Fragile X messenger ribonucleoprotein 1, C-terminal low-complexity region (Fmr1, Mus musculus, UniProt P35922)
Method: RNA Bind-n-Seq
Molecule type: RNA
Medium: in vitro
Concentration: 200 nM
Notes: whole 134-nt RNA, ends assumed
Added: 150 mM KCl
Reference: input library
Reading: higher = stronger binding
All sequences stand within: GGGAGUUCUACAGUCCGACGAUC … UGGAAUUCUCGGGUGUCAAGG
Oligonucleotide	log2 enrichment
AGUCCUGUGCUACACAUCGUAUGUACCGAAUCGGGCCCCCGGGCCCCCGGCCCCCGGGAAAGUAUUAUGUUACGCCGUUCGGAUCUGCAC	-0.889
UAACUUUAGAGGAGGAUCUGAUGGAUAUGGCAGUGGACGUGGAUUUGGGGAUGGCAAUAAUGGGUAUGGAGGAGGACCUGGAGGUGGCAA	0.0958
UAACUUUAGAGGAGGAUCUGAUGGGUAUGGCAGUGGACGUGGAUUUGGGGAUGGCUAUAAUGGGUAUGGAGGAGGACCUGGAGGUGGCAA	0.365
GGCAGUAGCAGCAGCGCCGGGUCCCGUGCGGAGGUGCUCCUCGCAGAGUUGUUUCUCGAGCAGCGGCAGUUCUCACUACAGCGCCAGGAC	-1.02
AGUCCUGUGCUACACAUCGUAUGUACCGAAUCGGGGUUUUUGGGGAGGGGAAAGGGGAAAGUAUUAUGUUACGCCGUUCGGAUCUGCACU	0.56
GUCCUGUGCUACACAUCGUAUGUACCGAAUCGGGGAGGGGUUUUUUUGGGGUUUGGGGAAAGUAUUAUGUUACGCCGUUCGGAUCUGCAC	0.706
CUCAAGUCCUGUGCUACACAUCGUAUGUACCGAAUCGGUUUUUUUGGUGGUGGAAAGUAUUAUGUUACGCCGUUCGGAUCUGCACUUCCA	-0.0119
UGGCGCUGUCCUGGACUUGAUGGGGGAUGAAGCCCAGAACCUGACGAGGGGCCGGCAGCAGCUCAAGUGGUGAGUGAUCGAGUGAGCCGC	-0.383

Repeated from above (sample 1):
Molecule	lacZ reporter activity
DAIPSLSECQCGICMEILVEPVTLPCNHTLCKPCFQSTVEKASLCCPFCRRRVSSWTRYH (RNF168 RING domain (UniProt Q8IYW5))	0
KTLSRFGIQPCSICLGDAKDPVCLPCDHVHCLRCLRAWFASEQMICPYCLTALPDEFSPA (RNF213 RING domain (UniProt Q63HN8))	0
B3 (ARK2C RING domain)	0
